Measured values pooled from the literature.
“And” joins repeats or separate records; there may be more than shown. ± marks the error that the study gave. ≈ marks a conversion by molar mass, not a printed value.

C[C@H](Oc1cc(-c2cnn(C3CCN(CC[18F])CC3)c2)cnc1N)c1c(Cl)ccc(F)c1Cl gave a tracer uptake of 2.6 ± 0.9 %ID/cc (PET imaging; nude mouse, brain; iv, 30 min post injection).
CCCC[C@H](NC(=O)CNC(=O)CNC(=O)CN1CCN(CC(=O)O)CCN(CC(=O)O)CC1)C(=O)N[C@H]1CC(=O)NCCCC[C@@H](C(N)=O)NC(=O)[C@H](Cc2c[nH]c3ccccc23)NC(=O)[C@H](CCCNC(=N)N)NC(=O)[C@@H](Cc2ccccc2)NC(=O)[C@H](Cc2c[nH]cn2)NC1=O [copper-64 labelled] gave an uptake ratio of 42.4 (female C57 mouse, B16/F1 melanoma; intravenous, 0.037 MBq, 4 h; reference: tumour over blood).
With N[C@@H](COc1ccccc1C(F)(F)F)c1ccccc1 the Vd was 30.3 L/kg (rat, plasma; intravenous, 5 mg/kg).
The renal clearance of CC(C)(Sc1ccncc1-c1ccc(C#N)c2ccccc12)C(=O)OC1OC(C(=O)O)C(O)C(O)C1O (stereo not shown) is reported as 163 mL/min (human, urine; oral, 15 mg, 72 h, mild renal impairment).
Cn1ccn(N=Cc2ccccc2SSc2ccccc2C=Nn2ccn(C)c2=S)c1=S: “hydrolytic stability period” at least 8 h (optical absorption spectra; PBS; pH 7.40, 0.15% DMSO).
C#CCOCCOCCOCCOCCn1cc(C(ONC(=O)/C=C/C(C)=C/C2(C)Oc3cc(N(C)C)ccc3C2=O)(c2ccccc2)c2ccccc2)nn1 (stereo not shown) — result for hydrolytic stability: “stable” (buffer; all pH values).
CCCC[C@H](NC(=O)CNC(=O)CNC(=O)CN1CCN(CC(=O)O)CCN(CC(=O)O)CC1)C(=O)N[C@H]1CC(=O)NCCCC[C@@H](C(N)=O)NC(=O)[C@H](Cc2c[nH]c3ccccc23)NC(=O)[C@H](CCCNC(=N)N)NC(=O)[C@@H](Cc2ccccc2)NC(=O)[C@H](Cc2c[nH]cn2)NC1=O [gallium-67 labelled] has a urinary excretion of 54.2 ± 13.1% (C57 mice, female, B16/F1 melanoma, urine; intravenous, 0.037 MBq, 0.5 h).
Oc1ccc2ccccc2c1/N=N/c1ccc(/N=N/c2ccccc2)cc1 has an elimination half-life of 2.39 h (Sprague-Dawley rats both sexes, whole blood; oral, 50 mg/kg).
For O=C(NCCCN(CCCCN(CCCNC(=O)c1cccc(=O)n1[O-])C(=O)c1cccc(=O)n1[O-])C(=O)c1cccc(=O)n1[O-])c1cccc(=O)n1[O-].[89Zr+4], the intact complex was 98.3 ± 2.5% (radio-TLC; PBS; 1 h, pH 7.4, 37 °C, together with: Mg^2+ 10-fold excess).
COc1ccc(-c2csc(N/N=C(\C)c3cc(O)cc(O)c3)n2)cc1 has a recovery of 65.7% and 67.8% and 64.8% and 71.8% (equilibrium dialysis; human plasma, male; 3 µM, 5 h, pH 7.4).
CC(C)[C@H](NC(=O)[C@@H]1CCCN1C(=O)[C@H](CCCNC(=N)N)NC(=O)[C@H](CS)NC(=O)[C@H](Cc1c[nH]c2ccccc12)NC(=O)[C@H](CCCNC(=N)N)NC(=O)[C@@H](Cc1ccccc1)NC(=O)[C@H](Cc1c[nH]cn1)NC(=O)[C@H](CCC(=O)O)NC(=O)[C@H](CS)NC(=O)[C@H](CS)NC(=O)CNC(=O)[C@@H]1CC(=O)N[C@@H](CCCNC(=N)N)C(=O)NCC(=O)N[C@@H](CC(=O)O)C(=O)N[C@H](Cc2ccc(O)cc2)C(=O)N1)C(N)=O [technetium-99m labelled] — result for “tumour to tissue ratio”: 11.2 (C57 mouse, female, B16/F1 melanoma; intravenous, 0.037 MBq, 4 h; reference: tumour over blood).
For N=C(N)NCCC[C@@H]1NC(=O)[C@H](Cc2c[nH]c3ccccc23)NC(=O)[C@@H](CC2CCCCC2)NC(=O)[C@@H]2CCCN2C(=O)[C@@H](NC(=O)CCc2ccccc2)CCCNC1=O, “apparent distributional clearance” read 0.07 ng/(min·ng/g) (C57BL/6J mice, spinal cord; subcutaneous, 1 mg/kg, two-compartment model).
For Cc1cc(N2CCC(C#N)(C3(C)CC3)C2=O)cc(C(=O)NCc2cc(F)cc(-c3cnn(C)c3)c2)n1 (racemic), the blood clearance was 12 mL/min/kg (rat Sprague Dawley male; intravenous, 0.9 mg/kg, from plasma and blood-to-plasma ratio).
COC(=O)/C=C/C(=O)c1ccc(OC)cc1 has a recovery of 99.2 ± 4.48% (LC-MS/MS; processed rat plasma, autosampler; 2.5 ng/mL, 12 h, 4 °C, post-preparative).
Under “metabolite peak area”, COC[C@@H](CC(C)C)NC(=O)c1ccc(C)c(CO)c1 is recorded as 0.8% (LC-MS; human liver microsomes; 10 µM of parent drug, 10 min, pH 7.4, together with: NADPH; reference: parent drug at time zero).
NC12CNCCNCC(NCc3ccc(CNC(=O)CCCC(=O)NCc4ccc(-c5nncnn5)cc4)cc3)(CNCCNC1)CNCCNC2.[64Cu+2] — result for “mean absorbed dose”: 0.0325 rad/mCi (OLINDA dosimetry; lungs; 24 h pretargeting interval, together with: huA33-TCO pretargeting).
Cc1cc(O)cc(O)c1C(=O)c1c2c3c(c(O)cc(C)c3oc1=O)C(=O)c1c(O)cc(O)cc1-2 has a lag time of 2.87 min (KM mouse male, plasma; intraperitoneal, 30 mg/kg).
For [11CH3]c1ccc2nc(C3CCC3)n(-c3ccc4[nH]ncc4c3)c2n1, “absorbed radiation dose” read 5.6 µSv/MBq (human male, kidneys).
Cn1c(=O)oc2ccc(-c3ccc(CC(C#N)NC(=O)C4CNCCCO4)c(F)c3)cc21 (stereo not shown) — result for “monocyte count increased incidence”: 0% (human; oral, 40 mg once daily, TEAE, multiple ascending dose).
CCCC[C@H](NC(=O)CNC(=O)CNC(=O)CN1CCN(CC(=O)O)CCN(CC(=O)O)CCN(CC(=O)O)CC1)C(=O)N[C@H]1CC(=O)NCCCC[C@@H](C(N)=O)NC(=O)[C@H](Cc2c[nH]c3ccccc23)NC(=O)[C@H](CCCNC(=N)N)NC(=O)[C@@H](Cc2ccccc2)NC(=O)[C@H](Cc2c[nH]cn2)NC1=O [lead-203 labelled] has a urinary excretion of 92 ± 2.16% (normal C57 mice, urine; intravenous, 0.056 MBq, 4 h).
With CCC(=O)N[C@@H](C)C(=O)OCC(=O)N[C@@H](C)C(=O)O the depolymerization half-life was 1030 h (water; pH 5, 25 °C).
With CN1CCC[C@]1(C)/C=C/S(=O)(=O)NC(=O)Nc1c2c(cc3c1CCC3)CCC2 the AUC(0-24) was 16900 ng·h/mL (human, plasma; oral, 12.5 mg twice daily, day 1, multiple ascending dose).
COc1cc(-c2nc3ccc(C(=O)NCCCN4CCN(C5CCCCC5)CC4)cc3n2C2CCC2)cc(OC)c1OC gave a dynamic solubility of 149 µM.
The absorbed dose of O=C([O-])CN1CCN(CC(=O)[O-])CCN(CC(=O)NC[C@H]2CC[C@H](C(=O)N[C@H](Cc3cnc4ccccc4c3)C(=O)NCCCC[C@H](NC(=O)N[C@@H](CCC(=O)O)C(=O)O)C(=O)O)CC2)CCN(CC(=O)[O-])CC1.[64Cu+2] is reported as 0.013 mGy/MBq (PET/CT dosimetry; healthy human volunteers, stomach).
For C[C@@H](O)[C@H](NC(=O)[C@@H](NC(=O)[C@@H](N)CCCCN)[C@@H](C)O)C(=O)N[C@@H](CCCCN)C(=O)N[C@@H](CO)C(=O)O, “amount retained in stratum corneum” read “not detected” (LC-MS/MS; hairless mouse, skin, Franz cell; 50 µg/cm^2 applied, 24 h).
Cc1[nH]nc2c1N=C(c1ccccc1Cl)c1cnc(NCCOCCO)cc1N2: “metabolite to parent ratio” 0.07% (human male, plasma; oral, 10 mg, 0-120 h; reference: metabolite AUC over parent AUC).
For COc1cc(NC(C)=O)c2c(c1O)-c1c(OC)c(OC)cc3c1C(C2)N(C)CC3 (stereo not shown), the remaining compound was 92.4 ± 2.3% (rat lung homogenate; 0.5 µg/mL, 24 h, room temperature, post-preparative storage).
Under “metabolic rate constant”, CC(C)(C)NCC(SS(=O)(=O)O)c1ccccc1 (stereo not shown) is recorded as 0.1 h⁻¹ (CYP-dependent metabolism; CD1 mouse, female, liver microsomes; 4 µM, pH 7.4, together with: with minus without NADPH).
C=C(c1cc(F)c(C(=O)O)c(F)c1)c1cc2c(cc1C)C(C)(C)CCC2(C)C gave a blood cholesterol of 47 ± 8 mg/dL (Sprague-Dawley rat, male; oral, 100 mg/kg, 24 h, sesame oil vehicle).
Cc1ccc(-c2ccc(-c3cc4sccc4o3)cn2)nc1 — result for “fluorescence quantum yield”: 0.5 (hexanes; together with: quinine bisulfate reference).
CC/C=C\C/C=C\C/C=C\C/C=C\C/C=C\CCCCOC(CC)C(=O)O (stereo not shown) has a tissue concentration of 134 µg/g (14C radiolabel; Wistar rats male, liver; oral, 100 mg/kg, 2 h).
CC1=C(O)C(=O)C=C2C1=CC=C1[C@@]2(C)CC[C@@]2(C)[C@@H]3C[C@](C)(C(=O)NCCOCCOCCOCCOCC(=O)N[C@H](C(=O)N4C[C@H](O)C[C@H]4C(=O)N[C@@H](C)c4ccc(-c5scnc5C)cc4)C(C)(C)C)CC[C@]3(C)CC[C@]12C gave a bioavailability of 98% (C57BL/6 mouse, male, plasma; ip, 20 mg/kg).
With C=C1C(=O)O[C@@H]2C[C@H](C)[C@@H]3C[C@H](OCc4cn(Cc5ccccc5)nn4)[C@H](O)[C@@]3(C)C[C@H]12 the CC50 was 69.1 ± 12 µg/mL (≈ 158 µM) (propidium iodide flow cytometry; primary splenocytes, BALB/c mouse; 48 h, 10% fetal calf serum).
With CCC1CC2C(C)=CC3C(=O)CCCC3C=CC(C)=CC2C(=O)O1 (stereo not shown) the plasma concentration was 2.4 ± 2.5 ng/mL (ICR mouse (male), plasma; oral, 30 mg/kg, 120 min).
CC(C)[C@H](NC(=O)CNC(=O)[C@H](CCC(N)=O)NC(=O)[C@H](C)N)C(=O)O gave an AUC(0-last) of 270 ng·h/mL (LC-MS/MS; human, plasma; intravenous, 10 mg/kg three times daily, day 1, first dose, 10 min infusion, geometric mean).
Cc1ccc(OCC(=O)O)cc1 has a t1/2 of 2.43 h (Sprague-Dawley rat Crl:CD(SD), female, plasma; oral, 30 mg/kg/day of parent drug, day 90, 90-day repeated dosing).
CC(NC(=O)OC1OC(C(=O)O)C(O)C(O)C1O)c1cc(Cl)ccc1Cn1c(=S)[nH]c(=O)c2[nH]ccc21 (stereo not shown) gave a fraction unbound of 19.6 ± 0.67% (equilibrium dialysis; male Han Wistar rats, plasma; 0.1 µM, 16 h, 37 °C).
NS(=O)(=O)c1ccc(-n2nc(C(F)(F)F)cc2-c2ccc(F)cc2F)cc1 — result for “metabolite formation rate”: 44.5 pmol/min/mg (substrate; male Wistar rat liver microsomes; 20 µM, pH 7.4, mean of 0-90 and 0-60 min).
With O=[11C](OC(C(F)(F)F)C(F)(F)F)N1CCC(CNS(=O)(=O)c2ccc(Cl)cc2)CC1 the uptake was 0.75 SUV (PET; rhesus monkey, male, cerebellum; iv, 3.71 mCi).
The apparent clearance of O=C1C2=C(CCN(Cc3ccccc3)C2)N2CCN=C2N1Cc1ccc(C(F)(F)F)cc1 is reported as 396 mL/min/kg (microsomal stability; human liver microsomes).
For CC12CC(c3ccc(S(C)(=O)=O)cc3)C3=C4CCC(=O)C=C4CCC3C1CCC2(O)C(F)(F)C(F)(F)F (stereo not shown), “mean residence time” read 49.7 h (human, plasma; intravenous, 15.7 µg, [14C] microdose, geometric mean).
For O=C(Nc1nccs1)C(c1cc(F)ccc1O)N1Cc2ccccc2C1=O (stereo not shown), the amount recovered was about 1.74% (FVB/NRj mouse, female, small intestine with contents; oral, 20 mg/kg, 4 h; reference: dose).
With CCCC[C@@H]1NC(=O)[C@@H](NC(=O)[C@H](CCC(=O)O)NC(=O)CNC(=O)CN2CCN(CC(=O)O)CCN(CC(=O)O)CCN(CC(=O)O)CC2)CCCCNC(=O)C[C@@H](C(N)=O)NC(=O)[C@H](C(C)C)NC(=O)[C@@H]2CCCN2C(=O)[C@H](CCCNC(=N)N)NC(=O)CNC(=O)[C@H](Cc2c[nH]c3ccccc23)NC(=O)[C@H](CCCNC(=N)N)NC(=O)[C@@H](Cc2ccccc2)NC(=O)[C@H](Cc2c[nH]cn2)NC(=O)[C@H](CCC(=O)O)NC1=O [gallium-67 labelled] the urinary excretion was 81.9 ± 2.42% (B16/F1 melanoma-bearing C57 mice, urine; intravenous, 0.037 MBq, 2 h).

A few entries again:
For N=C(N)NCCC[C@@H]1NC(=O)[C@H](Cc2c[nH]c3ccccc23)NC(=O)[C@@H](CC2CCCCC2)NC(=O)[C@@H]2CCCN2C(=O)[C@@H](NC(=O)CCc2ccccc2)CCCNC1=O, “apparent distributional clearance” read 0.07 ng/(min·ng/g) (C57BL/6J mice, spinal cord; subcutaneous, 1 mg/kg, two-compartment model).
Cc1[nH]nc2c1N=C(c1ccccc1Cl)c1cnc(NCCOCCO)cc1N2: “metabolite to parent ratio” 0.07% (human male, plasma; oral, 10 mg, 0-120 h; reference: metabolite AUC over parent AUC).
